# Experimental data collected from several papers.
# Every numbered part comes from another study and shows a few of its results, in no order.

# Set 1 — method: RNA Bind-n-Seq; form: RNA; medium: in vitro; tested at: 365 nM; baseline: no-protein control; reading: higher = stronger binding
# Target: RNA binding protein fox-1 homolog 2, RRM domain, GST-SBP tag (RBFOX2, Homo sapiens, UniProt O43251-10, residues 100-194)
# Setting: natural RNA segment, single round, ends assumed
# All sequences stand within: GGGAGUUCUACAGUCCGACGAUC … UGGAAUUCUCGGGUGCCAA
# Construct (chain): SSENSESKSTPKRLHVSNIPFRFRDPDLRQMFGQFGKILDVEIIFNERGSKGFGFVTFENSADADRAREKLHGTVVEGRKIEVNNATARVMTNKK
Oligonucleotide,RBNS enrichment (R)
GUGCCCUCGCUUCAUGAGGUGGCACAUCUUCGGUGGCCGUUGGCCUGGUCGAGCUUUGGUCAGCUGCGUGGGUGCCUGUCUCCUGUCUCCAGCGGCAGGGCAUGGUUCUU,0.454
CCCACAAAGAGCCCAUCUGAGAGAAGGACGUGGUGGAGCCAGGACGGGAAAGCGUCCUGUCGGCUGGCCAUGCUGUUGCUUGCGUCUCGAAUCUUCGGUUCUCGAGGAAG,1.08
UACCCUUUUUGGCCUGAAGACAUUUUAGAAUUUCCUAACAGAGUUUACUGUUGUUUAGAAAUUUGCAAGGGCUUCUUUUCCGCAAAUGCCACCAGCAGAUUAUAAUUUUG,0.506
AAGGGGCAGGAGAUGACCCUCCCCUAGGCUUUCAGCUUCAGGCAGCUUCUUCACAGCCUGUUCAGCCUGGGCUCCUGGAGGACAGCCCUGGGGGAGGCAGUGAGGGGCAG,0.35
UACAUUAUCCGACUAAGGACUCUGGGCUGGCAGGGCCUUCUGCCGGGAAAGCUAGAAACACUAGGUUCUUCCUGUACAUACGUGUAUAUAUGUGAACAGUGAGAUGGCCG,0.671
UGCAAGACAGUAAGCCGCGGAUGGACUCUCACUUGUGCUUUGGAACACUGGACUCCAAAGAGCAGGUGGAACAAACUCUGGCCUGAAGAUGAUGGCUAAUACUCAGGCAG,0.531
GGCGUCCCCGUCUCCGUUGGGGCCAUUAGAAUGAGGCAGACACCAGGCCACUCUAGAAGCCGAGCCGUCACACCUCAGGCGUGUGCGGGGCGGGGACGGGGGGUCUCCUG,0.348
CCACAUUAACUUCUCUGAUGCCUUAAAAGUGGACUUCUUUGAAGAACUUCUGUGCUAUUUUAUCACAGGCUCAUACCACAAUUGUUAAUAUCUGGAGAUGGAUGAUGAAC,0.443

# Set 2 — method: protein binding microarray; form: double-stranded DNA, one strand shown; medium: in vitro; tested at: not given; baseline: not given; reading: higher = stronger binding
# Target: Histone acetyltransferase KAT6A, winged helix 2, GST fusion (KAT6A, Homo sapiens, UniProt Q92794, residues 85-181)
# Setting: 8-mer, flanks averaged, mean of 2 arrays, mostly near background
# Target sequence (chain): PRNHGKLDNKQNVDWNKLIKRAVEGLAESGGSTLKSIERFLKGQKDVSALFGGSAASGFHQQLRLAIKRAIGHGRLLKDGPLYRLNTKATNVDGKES
Oligonucleotide,E-score
AGGGTCGA,0.0485
AGCTAGCA,0.0116
AGCGATCC,-0.0772
GCACATAA,-0.0342
GAATTTGC,0.0819
CGGCTTCA,0.175
ACCCTTAT,-0.0975
AACCGGTA,-0.158
GGCAATCA,-0.0324
GAAAGGGA,-0.0168
GCTCCGAA,0.26
AGGGGTGA,-0.199
GCTCAGAC,0.0367
ATCCCGAT,-0.0398
AGAATCCC,0.119
CCCTGCGA,0.204
GCGGAGGA,-0.0449
AAAACATC,-0.0827
CGCTCTCC,0.0682
AAATAAGT,-0.098
CTCACTTA,-0.0457
CCGGCTCC,0.242
CGAAACTC,0.0269
CTCACACA,0.0355
CCAGGCGA,0.166

# Set 3 — method: protein-binding microarray; form: double-stranded DNA, one strand shown; medium: in vitro; tested at: 940 nM top; setting: 60-bp whole probe; added: salmon DNA 0.4 mg/ml; baseline: random background probes; reading: higher = stronger binding; all sequences stand within: GCCTAGCAC … GTCTTGATTCGCTTGACGCTGCTG
# Target: Interferon regulatory factor 5, full length, phosphomimetic (IRF5, Homo sapiens, UniProt Q13568-2, residues 1-514, S451D/S453D/S456D/S462D)
Oligonucleotide,fitted relative affinity [z-score]
CTAGGTATCGGTATCGGTTAGTGCTAG,9.56
CTAGGTCTCCTTTTCCTTTAGTGCTAG,0.677
ATGATGTGTCAAAAATTGCAGTGCTAG,-0.812
TCAGGTATGGCCTATTTAACTGTGCTA,-0.61
GCCGATCTCAGTCTCGAGACGTGCTAG,1.55
ATAATTTTTCTAGTGGTTGCGTGCTAG,0.354
GACTATCTCAGTTTCGAGACGTGCTAG,4.16
TCATTTTTCTAATTGAAACTGTGCTAG,0.652
TCAGCTCTCCGGGGTCTGACTGTGCTA,-0.096
ATAGGTATCGGGACTGGGTTAGTGCTA,3.29
GACGGTTTCGACTATCGTGACGTGCTA,8.05
AACACAAACCCGCTGGAGTTGTGCTAG,-0.481
GTAGAACTGGGGTTTCGATTAGTGCTA,5.32
CTTTCTTTATGCACTCTTTACGTGCTA,2.19
TTAGGTCTCGGTTTCGGTTAGTGCTAG,9.68
TTAGAACTGAGTATCGGTTAGTGCTAG,4.14
GACGGTCTGGGTATCGGGACGTGCTAG,0.852
GACGAACTGAGGATCGAGACGTGCTAG,-0.256
CCCTGAGGAATCCTGCAGCCGTGCTAG,-0.366

# Set 4 — method: RNA Bind-n-Seq; form: RNA; medium: in vitro; tested at: 1 µM; setting: whole 134-nt RNA, ends assumed; added: 150 mM KCl; baseline: input library; reading: higher = stronger binding
# Target: Ras GTPase-activating protein-binding protein 1, RRM domain (G3BP1, Homo sapiens, UniProt Q13283)
# Chain of UniProt Q13283 (whole entry, looked up): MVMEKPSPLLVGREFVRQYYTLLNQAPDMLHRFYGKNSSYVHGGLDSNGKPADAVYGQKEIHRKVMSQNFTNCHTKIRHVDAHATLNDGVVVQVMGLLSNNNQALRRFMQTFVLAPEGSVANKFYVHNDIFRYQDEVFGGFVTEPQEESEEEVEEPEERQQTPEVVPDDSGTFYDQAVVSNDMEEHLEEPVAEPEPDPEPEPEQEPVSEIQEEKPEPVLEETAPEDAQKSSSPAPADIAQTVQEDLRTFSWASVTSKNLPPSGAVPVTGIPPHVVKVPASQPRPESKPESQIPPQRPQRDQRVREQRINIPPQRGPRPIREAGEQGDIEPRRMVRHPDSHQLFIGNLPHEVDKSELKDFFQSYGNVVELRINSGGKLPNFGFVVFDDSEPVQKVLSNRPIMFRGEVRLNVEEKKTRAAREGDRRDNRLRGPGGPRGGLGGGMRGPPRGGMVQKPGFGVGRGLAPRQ
# All sequences stand within: GGGAGUUCUACAGUCCGACGAUC … UGGAAUUCUCGGGUGUCAAGG
Oligonucleotide,log2 enrichment
CCUCAAGUCCUGUGCUACACAUCGUAUGUACCGAAUCGGGGCGGCGGGGCGGGAAAGUAUUAUGUUACGCCGUUCGGAUCUGCACUUCCA,-0.0113
UCCUGUGCUACACAUCGUAUGUACCGAAUCGGGAAAAAGGGUUUUUUUGGGUUUUUGGGAAAGUAUUAUGUUACGCCGUUCGGAUCUGCA,-0.241
CUGUGCUACACAUCGUAUGUACCGAAUCGGGGUUUUUUGGGGUUUUUUGGGUUUUUUGGGGAAAGUAUUAUGUUACGCCGUUCGGAUCUG,-0.183
CCUGUGCUACACAUCGUAUGUACCGAAUCGGGGAAAAAAAGGAAAAAAAGGGAAAAAAAGGAAAGUAUUAUGUUACGCCGUUCGGAUCUG,0.0611
UCCUGUGCUACACAUCGUAUGUACCGAAUCGGGAAAAAAAGGGUUUGGGAAAAAAAGGGAAAGUAUUAUGUUACGCCGUUCGGAUCUGCA,-0.00899
UCAGGUCCUUAAGUACCUUCGUAUUACUUUUAGCAGGAAAAACGGCAUGUUUUGCAUCUGGUGUGCAAUGUGAAGAGUCCUUCAAAAAUG,-0.22
GCAGGAAGUAAAAACAAAUGGAAAUGCUUCGGAUAGUGGCAGGGGUGGGGGUUGCUAAGGAAAGGGUGGGAUGGGAGUAGGUAAAGAGUU,1.13
CCUCAAGUCCUGUGCUACACAUCGUAUGUACCGAAUCGGGGUGGGGUGGUGGGAAAGUAUUAUGUUACGCCGUUCGGAUCUGCACUUCCA,0.115
CUCAAGUCCUGUGCUACACAUCGUAUGUACCGAAUCGGGAGGGGAGGGGAGGGAAAGUAUUAUGUUACGCCGUUCGGAUCUGCACUUCCA,0.846

# A few entries again (set 1):
Oligonucleotide,RBNS enrichment (R)
GUGCCCUCGCUUCAUGAGGUGGCACAUCUUCGGUGGCCGUUGGCCUGGUCGAGCUUUGGUCAGCUGCGUGGGUGCCUGUCUCCUGUCUCCAGCGGCAGGGCAUGGUUCUU,0.454
CCCACAAAGAGCCCAUCUGAGAGAAGGACGUGGUGGAGCCAGGACGGGAAAGCGUCCUGUCGGCUGGCCAUGCUGUUGCUUGCGUCUCGAAUCUUCGGUUCUCGAGGAAG,1.08
UACCCUUUUUGGCCUGAAGACAUUUUAGAAUUUCCUAACAGAGUUUACUGUUGUUUAGAAAUUUGCAAGGGCUUCUUUUCCGCAAAUGCCACCAGCAGAUUAUAAUUUUG,0.506
AAGGGGCAGGAGAUGACCCUCCCCUAGGCUUUCAGCUUCAGGCAGCUUCUUCACAGCCUGUUCAGCCUGGGCUCCUGGAGGACAGCCCUGGGGGAGGCAGUGAGGGGCAG,0.35
UACAUUAUCCGACUAAGGACUCUGGGCUGGCAGGGCCUUCUGCCGGGAAAGCUAGAAACACUAGGUUCUUCCUGUACAUACGUGUAUAUAUGUGAACAGUGAGAUGGCCG,0.671
UGCAAGACAGUAAGCCGCGGAUGGACUCUCACUUGUGCUUUGGAACACUGGACUCCAAAGAGCAGGUGGAACAAACUCUGGCCUGAAGAUGAUGGCUAAUACUCAGGCAG,0.531
GGCGUCCCCGUCUCCGUUGGGGCCAUUAGAAUGAGGCAGACACCAGGCCACUCUAGAAGCCGAGCCGUCACACCUCAGGCGUGUGCGGGGCGGGGACGGGGGGUCUCCUG,0.348
